{"data": "Results collected from several papers", "note": "Every numbered part comes from another study and shows a few of its results, in no order.", "sequence of UniProt Q8N4C8 (whole entry, looked up)": "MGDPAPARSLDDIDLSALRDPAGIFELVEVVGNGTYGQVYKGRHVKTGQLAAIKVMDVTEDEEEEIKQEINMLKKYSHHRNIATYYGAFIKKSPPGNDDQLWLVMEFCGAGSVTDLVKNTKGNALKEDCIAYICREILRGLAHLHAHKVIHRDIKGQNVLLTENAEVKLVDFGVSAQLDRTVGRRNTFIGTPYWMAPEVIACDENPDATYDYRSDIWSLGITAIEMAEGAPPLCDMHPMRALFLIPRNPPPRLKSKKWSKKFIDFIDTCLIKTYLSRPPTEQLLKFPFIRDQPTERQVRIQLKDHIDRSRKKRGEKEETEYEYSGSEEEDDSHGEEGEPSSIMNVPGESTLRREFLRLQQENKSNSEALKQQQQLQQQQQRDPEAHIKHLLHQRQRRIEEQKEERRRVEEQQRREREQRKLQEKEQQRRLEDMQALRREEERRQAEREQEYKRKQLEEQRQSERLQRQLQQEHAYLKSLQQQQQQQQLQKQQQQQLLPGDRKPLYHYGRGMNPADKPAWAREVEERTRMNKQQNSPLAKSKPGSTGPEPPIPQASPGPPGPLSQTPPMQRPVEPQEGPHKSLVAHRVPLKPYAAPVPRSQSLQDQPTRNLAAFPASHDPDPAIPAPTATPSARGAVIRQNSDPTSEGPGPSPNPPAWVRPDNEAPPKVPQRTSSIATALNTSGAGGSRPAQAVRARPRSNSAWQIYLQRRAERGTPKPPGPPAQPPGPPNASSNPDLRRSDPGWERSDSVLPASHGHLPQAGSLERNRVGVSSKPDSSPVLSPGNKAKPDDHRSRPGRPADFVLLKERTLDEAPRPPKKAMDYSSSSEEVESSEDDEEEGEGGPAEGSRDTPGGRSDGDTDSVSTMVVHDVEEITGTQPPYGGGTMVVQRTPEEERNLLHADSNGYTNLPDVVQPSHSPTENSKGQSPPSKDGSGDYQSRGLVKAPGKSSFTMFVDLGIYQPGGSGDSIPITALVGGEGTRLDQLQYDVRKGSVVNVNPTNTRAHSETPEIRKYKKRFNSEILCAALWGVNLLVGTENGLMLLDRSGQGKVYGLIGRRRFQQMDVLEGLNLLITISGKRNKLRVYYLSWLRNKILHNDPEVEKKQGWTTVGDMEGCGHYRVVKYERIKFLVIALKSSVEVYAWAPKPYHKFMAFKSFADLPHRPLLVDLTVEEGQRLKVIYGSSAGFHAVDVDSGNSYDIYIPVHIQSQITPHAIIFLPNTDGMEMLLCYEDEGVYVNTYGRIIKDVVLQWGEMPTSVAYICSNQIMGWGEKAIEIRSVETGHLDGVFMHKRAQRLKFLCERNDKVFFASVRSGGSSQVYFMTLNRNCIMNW", "sequence of UniProt Q01959 (whole entry, looked up)": "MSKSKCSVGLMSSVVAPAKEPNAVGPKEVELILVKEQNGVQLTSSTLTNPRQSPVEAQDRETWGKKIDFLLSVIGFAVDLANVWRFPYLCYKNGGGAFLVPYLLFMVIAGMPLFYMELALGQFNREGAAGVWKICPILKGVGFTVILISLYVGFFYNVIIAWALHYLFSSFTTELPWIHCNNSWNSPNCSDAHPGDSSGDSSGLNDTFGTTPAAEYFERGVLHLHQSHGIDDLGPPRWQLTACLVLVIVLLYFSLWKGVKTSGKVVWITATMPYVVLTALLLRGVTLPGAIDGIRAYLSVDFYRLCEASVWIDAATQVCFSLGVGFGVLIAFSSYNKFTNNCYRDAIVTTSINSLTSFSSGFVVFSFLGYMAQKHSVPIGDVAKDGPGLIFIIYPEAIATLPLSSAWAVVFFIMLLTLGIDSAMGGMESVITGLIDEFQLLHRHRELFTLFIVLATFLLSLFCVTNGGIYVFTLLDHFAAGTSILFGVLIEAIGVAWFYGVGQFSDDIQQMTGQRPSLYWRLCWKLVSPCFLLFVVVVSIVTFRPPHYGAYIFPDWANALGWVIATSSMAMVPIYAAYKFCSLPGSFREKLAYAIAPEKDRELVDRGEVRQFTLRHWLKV", "sequence of UniProt P50750 (whole entry, looked up)": "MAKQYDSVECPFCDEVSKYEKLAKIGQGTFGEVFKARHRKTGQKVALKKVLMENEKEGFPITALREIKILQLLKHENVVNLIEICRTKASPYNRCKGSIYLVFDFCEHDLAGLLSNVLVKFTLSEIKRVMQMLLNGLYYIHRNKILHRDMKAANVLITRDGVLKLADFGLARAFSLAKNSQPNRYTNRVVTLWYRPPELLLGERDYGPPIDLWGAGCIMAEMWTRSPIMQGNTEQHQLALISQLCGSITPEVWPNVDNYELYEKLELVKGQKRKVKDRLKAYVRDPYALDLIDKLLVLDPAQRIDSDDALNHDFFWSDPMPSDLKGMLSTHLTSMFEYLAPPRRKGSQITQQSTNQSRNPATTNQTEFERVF", "sequence of UniProt Q9HAZ1 (whole entry, looked up)": "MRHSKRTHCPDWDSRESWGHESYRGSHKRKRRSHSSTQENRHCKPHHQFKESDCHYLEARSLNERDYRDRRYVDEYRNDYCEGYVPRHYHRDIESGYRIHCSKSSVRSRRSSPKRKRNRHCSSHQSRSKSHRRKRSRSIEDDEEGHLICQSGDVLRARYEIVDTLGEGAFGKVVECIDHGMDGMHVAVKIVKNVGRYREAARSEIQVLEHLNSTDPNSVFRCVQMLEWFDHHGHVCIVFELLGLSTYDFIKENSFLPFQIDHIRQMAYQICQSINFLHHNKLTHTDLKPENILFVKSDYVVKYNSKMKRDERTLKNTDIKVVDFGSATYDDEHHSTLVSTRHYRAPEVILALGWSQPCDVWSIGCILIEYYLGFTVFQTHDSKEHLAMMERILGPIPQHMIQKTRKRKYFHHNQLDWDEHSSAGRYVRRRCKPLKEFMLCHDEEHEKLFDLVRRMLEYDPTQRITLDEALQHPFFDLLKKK", "sequence of UniProt P08581 (whole entry, looked up)": "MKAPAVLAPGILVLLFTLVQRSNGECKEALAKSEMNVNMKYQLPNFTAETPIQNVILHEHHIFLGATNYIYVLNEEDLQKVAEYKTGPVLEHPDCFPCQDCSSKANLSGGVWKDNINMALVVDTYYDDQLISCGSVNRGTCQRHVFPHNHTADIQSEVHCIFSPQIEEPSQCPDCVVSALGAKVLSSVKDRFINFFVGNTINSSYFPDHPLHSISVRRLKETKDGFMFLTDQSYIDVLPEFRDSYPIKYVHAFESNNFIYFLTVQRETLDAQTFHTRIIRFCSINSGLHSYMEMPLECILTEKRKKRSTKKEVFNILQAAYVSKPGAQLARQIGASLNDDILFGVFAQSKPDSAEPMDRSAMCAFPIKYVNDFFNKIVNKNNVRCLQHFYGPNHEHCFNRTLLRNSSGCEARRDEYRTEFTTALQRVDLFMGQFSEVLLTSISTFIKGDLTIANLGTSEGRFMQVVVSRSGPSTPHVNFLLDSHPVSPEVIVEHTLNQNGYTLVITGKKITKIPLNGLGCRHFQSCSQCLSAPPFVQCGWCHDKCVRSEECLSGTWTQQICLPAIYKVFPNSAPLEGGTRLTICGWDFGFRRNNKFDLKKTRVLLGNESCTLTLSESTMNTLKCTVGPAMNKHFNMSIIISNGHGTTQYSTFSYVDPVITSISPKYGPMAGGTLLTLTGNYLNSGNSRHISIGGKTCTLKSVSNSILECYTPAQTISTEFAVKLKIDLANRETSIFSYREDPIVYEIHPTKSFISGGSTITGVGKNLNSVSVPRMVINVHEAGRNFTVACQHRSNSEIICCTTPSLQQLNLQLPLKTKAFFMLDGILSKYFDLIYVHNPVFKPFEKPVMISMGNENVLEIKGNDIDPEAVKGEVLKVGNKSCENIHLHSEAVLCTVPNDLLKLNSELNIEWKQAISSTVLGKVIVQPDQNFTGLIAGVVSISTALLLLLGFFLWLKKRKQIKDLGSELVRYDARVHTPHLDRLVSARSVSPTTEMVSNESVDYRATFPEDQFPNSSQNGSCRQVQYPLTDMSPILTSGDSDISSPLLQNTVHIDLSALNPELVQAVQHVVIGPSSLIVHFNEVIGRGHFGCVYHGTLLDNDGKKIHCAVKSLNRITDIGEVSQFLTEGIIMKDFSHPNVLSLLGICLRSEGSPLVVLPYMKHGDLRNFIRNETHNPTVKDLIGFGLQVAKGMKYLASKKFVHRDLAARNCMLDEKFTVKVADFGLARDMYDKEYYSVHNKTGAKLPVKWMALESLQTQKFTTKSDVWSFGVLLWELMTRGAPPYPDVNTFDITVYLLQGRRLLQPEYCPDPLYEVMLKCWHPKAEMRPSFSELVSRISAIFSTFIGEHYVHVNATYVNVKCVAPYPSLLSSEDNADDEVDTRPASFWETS"}
{"data": "Study 1", "SMILES": "COc1ccc2c(c1)/C(=C/c1cnc[nH]1)C(=O)N2", "read-out": "enzyme activity", "mode": "inhibitor", "tested at": "0.5 µM", "reference": "control"}
{"target": "RAC-beta serine/threonine-protein kinase (AKT2, Homo sapiens, UniProt P31751)", "remaining activity": "106%"}
{"target": "Serine/threonine-protein kinase Nek3 (NEK3, Homo sapiens, UniProt P51956)", "remaining activity": "87.8%"}
{"target": "Rho-associated protein kinase 1 (ROCK1, Homo sapiens, UniProt Q13464)", "remaining activity": "96%"}
{"target": "Tyrosine-protein kinase TXK (TXK, Homo sapiens, UniProt P42681)", "remaining activity": "93.5%"}
{"target": "Misshapen-like kinase 1 (MINK1, Homo sapiens, UniProt Q8N4C8)", "remaining activity": "57.9%"}
{"target": "Dual specificity protein kinase CLK4 (CLK4, Homo sapiens, UniProt Q9HAZ1)", "remaining activity": "72.6%"}
{"target": "Dual specificity protein kinase CLK3 (CLK3, Homo sapiens, UniProt P49761)", "remaining activity": "103%"}
{"target": "Mitogen-activated protein kinase 1 (MAPK1, Homo sapiens, UniProt P28482)", "remaining activity": "93.1%"}
{"target": "Mitogen-activated protein kinase 14 (MAPK14, Homo sapiens, UniProt Q16539)", "remaining activity": "97.7%"}
{"target": "Cyclin-dependent kinase 9, with cyclin K (CDK9, Homo sapiens, UniProt P50750)", "remaining activity": "59.4%"}
{"target": "Ribosomal protein S6 kinase alpha-4 (RPS6KA4, Homo sapiens, UniProt O75676)", "remaining activity": "76.9%"}
{"target": "Hepatocyte growth factor receptor (MET, Homo sapiens, UniProt P08581)", "remaining activity": "103%"}
{"data": "Study 2", "cell line": "HEK-293T", "read-out": "pseudovirus infection", "technique": "FDA-approved drug library counter-screen", "organism": "VSV pseudotyped with VSV-G", "tested at": "10 µM", "time": "16 h", "reference": "vehicle-treated"}
{"SMILES": "CC(=O)N[C@H]1[C@H]([C@H](O)[C@H](O)CO)OC(C(=O)O)=C[C@@H]1N=C(N)N", "GFP-positive cells": "127%"}
{"SMILES": "CC(=O)Oc1cc2c(s1)CCN(C(C(=O)C1CC1)c1ccccc1F)C2 (stereo not drawn)", "GFP-positive cells": "92%"}
{"SMILES": "CCn1cc(C(=O)O)c(=O)c2cc(F)c(N3CCNCC3)nc21", "GFP-positive cells": "112%"}
{"SMILES": "C=CC[C@@H]1/C=C(\\C)C[C@H](C)C[C@H](OC)[C@H]2O[C@@](O)(C(=O)C(=O)N3CCCC[C@H]3C(=O)O[C@H](/C(C)=C/[C@@H]3CC[C@@H](O)[C@H](OC)C3)[C@H](C)[C@@H](O)CC1=O)[C@H](C)C[C@@H]2OC", "GFP-positive cells": "139%"}
{"SMILES": "C=C1[C@H](CO)[C@@H](O)C[C@@H]1n1cnc2c(=O)[nH]c(N)nc21", "GFP-positive cells": "98.5%"}
{"SMILES": "CC1=C(C(=O)O)N2C(=O)[C@@H](NC(=O)[C@H](N)c3ccc(O)cc3)[C@H]2SC1", "GFP-positive cells": "91.6%"}
{"SMILES": "C#C[C@]1(O)CC[C@H]2[C@@H]3CCC4=CC(=O)CC[C@@H]4[C@H]3C(=C)C[C@@]21CC", "GFP-positive cells": "93.3%"}
{"SMILES": "Oc1ncnc2[nH]ncc12", "GFP-positive cells": "107%"}
{"SMILES": "O=C(Nc1c(Cl)cncc1Cl)c1ccc(OC(F)F)c(OCC2CC2)c1", "GFP-positive cells": "118%"}
{"SMILES": "CC1(C)NC(=O)N(c2ccc([N+](=O)[O-])c(C(F)(F)F)c2)C1=O", "GFP-positive cells": "99.6%"}
{"SMILES": "CC(NCCc1ccc(O)cc1)C(O)c1ccc(O)cc1 (stereo not drawn)", "GFP-positive cells": "92.4%"}
{"SMILES": "COc1c(N2C[C@@H]3CCCN[C@@H]3C2)c(F)cc2c(=O)c(C(=O)O)cn(C3CC3)c12", "GFP-positive cells": "86.5%"}
{"SMILES": "CC[C@@H](C(N)=O)N1CCCC1=O", "GFP-positive cells": "100%"}
{"SMILES": "CCCCCCOC(=O)N=C(N)c1ccc(NCc2nc3cc(C(=O)N(CCC(=O)OCC)c4ccccn4)ccc3n2C)cc1", "GFP-positive cells": "83.5%"}
{"SMILES": "CCCCOc1cc(C(=O)NCCN(CC)CC)c2ccccc2n1", "GFP-positive cells": "108%"}
{"SMILES": "Nc1nc(CC(=O)Nc2ccc(CCNC[C@H](O)c3ccccc3)cc2)cs1", "GFP-positive cells": "116%"}
{"SMILES": "CCc1c2c(nc3ccc(OC(=O)N4CCC(N5CCCCC5)CC4)cc13)-c1cc3c(c(=O)n1C2)COC(=O)[C@]3(O)CC", "GFP-positive cells": "102%"}
{"SMILES": "Cc1c(-c2ccccc2)oc2c(C(=O)OCCN3CCCCC3)cccc2c1=O", "GFP-positive cells": "113%"}
{"data": "Single results of other studies", "pknB": "Serine/threonine-protein kinase PknB (pknB, Mycobacterium tuberculosis, UniProt P9WI81)", "sequence of UniProt P9WI81 (whole entry, looked up)": "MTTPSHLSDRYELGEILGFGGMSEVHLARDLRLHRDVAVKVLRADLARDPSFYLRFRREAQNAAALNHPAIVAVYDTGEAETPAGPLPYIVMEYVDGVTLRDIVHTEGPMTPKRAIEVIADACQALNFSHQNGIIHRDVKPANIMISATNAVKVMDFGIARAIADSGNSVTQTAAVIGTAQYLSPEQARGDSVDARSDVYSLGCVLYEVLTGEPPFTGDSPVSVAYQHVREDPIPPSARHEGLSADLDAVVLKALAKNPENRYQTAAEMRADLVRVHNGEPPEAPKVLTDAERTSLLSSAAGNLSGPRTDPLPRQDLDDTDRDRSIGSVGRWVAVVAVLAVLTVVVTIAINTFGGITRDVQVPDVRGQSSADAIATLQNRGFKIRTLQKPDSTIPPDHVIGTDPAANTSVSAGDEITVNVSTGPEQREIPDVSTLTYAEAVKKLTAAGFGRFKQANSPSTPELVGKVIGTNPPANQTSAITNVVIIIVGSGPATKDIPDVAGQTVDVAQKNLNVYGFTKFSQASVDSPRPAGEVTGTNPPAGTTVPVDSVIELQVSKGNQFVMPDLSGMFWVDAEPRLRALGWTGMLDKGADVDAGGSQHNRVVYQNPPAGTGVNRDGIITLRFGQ"}
{"Compound": "O=C1NC(c2ccccn2)Sc2ccccc21 (stereo not drawn)", "tested on": "Sodium-dependent dopamine transporter (SLC6A3, Homo sapiens, UniProt Q01959)", "test": "ligand displacement", "conditions": "10 µM", "quantity": "inhibition", "result": "-2.05%"}
{"Compound": "CCCCCCCCCCCCCCCCOP(=O)([O-])OCC[N+](C)(C)C", "tested on": "Leishmania donovani", "system": "THP-1 intracellular amastigotes, DD8 resistant line", "conditions": "0.02 µM, resistance confirmation", "quantity": "inhibition", "result": "1%"}
{"Compound": "CC(=O)C1=C(C)N(c2cccc(C(F)(F)F)c2)C(=O)N[C@@H]1c1ccc(C#N)nc1", "tested on": "pknB", "test": "cell-free assay, competition with immobilised ligand", "conditions": "1 µM", "quantity": "remaining binding", "result": "82.7%"}
{"Compound": "N#Cc1ccc(Oc2ncccc2C#N)cc1Cl", "system": "human, microsomes or S9", "conditions": "2 µM, 0.5 h", "quantity": "remaining compound", "result": "> 99%"}
{"Compound": "CN([C@@H]1CCc2c(CC(=O)O)c3ccccc3n2C1)S(=O)(=O)c1ccc(F)cc1", "tested on": "pknB", "test": "cell-free assay, competition with immobilised ligand", "conditions": "1 µM", "quantity": "remaining binding", "result": "100%"}
{"Compound": "CN(C)c1ncnc(-c2ccc3nc(Nc4cc(CN5CCN(C(=O)CC(F)(F)F)CC5)ccn4)[nH]c3c2)c1Cl", "tested on": "Cyclin-dependent kinase 2 homolog (CRK2, Plasmodium falciparum, UniProt P61075)", "test": "cell-free assay, competition with immobilised ligand", "conditions": "1 µM", "quantity": "remaining binding", "result": "85%"}
{"note": "Some of these lines once more (study 2):"}
{"SMILES": "CC(=O)Oc1cc2c(s1)CCN(C(C(=O)C1CC1)c1ccccc1F)C2 (stereo not drawn)", "GFP-positive cells": "92%"}
{"SMILES": "CCn1cc(C(=O)O)c(=O)c2cc(F)c(N3CCNCC3)nc21", "GFP-positive cells": "112%"}
